# Measured values gathered from unrelated publications.
# Lines come from different studies, so protocols differ. “And” joins repeats or separate records; there may be more than shown. ± marks the error that the study gave.
SMILES,target or system,test,system,conditions,scale,measurement,value
CC[C@H](C)[C@H](NC(=O)[C@H](C)NC(=O)[C@H](CCC(=O)O)NC(=O)[C@H](CCC(=O)O)NC(=O)[C@H](CC(C)C)NC(=O)[C@H](CCCCN)NC(=O)[C@H](CCCCN)NC(=O)[C@H](CCSC)NC(=O)[C@H](CCC(=O)O)NC(=O)[C@H](Cc1ccc(O)cc1)NC(=O)[C@H](CCC(=O)O)NC(=O)[C@H](CC(C)C)NC(=O)[C@H](CC(=O)O)NC(=O)[C@H](CC(C)C)NC(=O)[C@H](Cc1ccccc1)NC(=O)[C@@H](NC(=O)[C@@H](NC(=O)[C@H](CC(N)=O)NC(=O)[C@@H](NC(=O)[C@H](CCC(N)=O)NC(=O)[C@H](CC(=O)O)NC(=O)[C@H](CC(C)C)NC(=O)[C@H](CO)NC(=O)[C@H](CC(C)C)NC(=O)[C@H](CC(=O)O)NC(=O)[C@@H]1CCCN1C(=O)[C@H](C)N)[C@@H](C)CC)C(C)C)[C@@H](C)O)C(=O)N[C@@H](CCCCN)C(=O)N[C@@H](CCCCN)C(=O)N[C@@H](CC(C)C)C(=O)N[C@@H](CCC(=O)O)C(=O)N[C@@H](CCC(=O)O)C(=O)N[C@@H](CO)C(=O)N[C@@H](Cc1ccc(O)cc1)C(=O)N[C@H](C(=O)N[C@@H](CC(=O)O)C(=O)N[C@@H](CC(C)C)C(=O)N[C@@H](CCCCN)C(=O)N[C@@H](CCC(=O)O)C(=O)N[C@@H](CC(C)C)C(=O)O)[C@@H](C)CC,HCoV-OC43,"viral infection, inhibitor, immunostaining",HCT-8,2 days,,IC50,0.161 µM
Cc1ccc(-c2csc(NP(=O)(O)OCC3OC(n4cnc5c(=O)[nH]c(NC(=O)c6ccccc6)nc54)C4OC(C)(C)OC34)n2)cc1 (stereo not drawn),HepG2,"cell growth, SRB",,,,IC50,> 100 µM
Cc1n[nH]c(C)c1S(=O)(=O)Nc1ccc2c[nH]nc2c1,human IMPDH,,,,,IC50,15 µM
NC[C@@H](NC[C@@H]1CCCN1C[C@@H](CO)NC[C@@H](NCCC1CC2CCC1C2)c1ccccc1)c1ccccc1 (stereo partly drawn),Acinetobacter baumannii,bacterial growth,,compound alone,,IC50,> 24 µM
O=S(=O)(O)c1ccc2cc(S(=O)(=O)O)ccc2c1,Escherichia coli,"bacterial growth, broth microdilution",expressing OXA-48,"4 µg/mL, added: ampicillin",MIC of ampicillin,MIC of ampicillin,256 µg/mL
CN1CC[C@]23c4c5ccc(O)c4O[C@H]2c2ncc(-c4ccc(Cl)cc4)cc2C[C@@]3(OCCCc2ccccc2)[C@H]1C5,,tolerance,"CD-1 mouse, chemotherapy-induced neuropathy","sc, 0.32 mg/kg twice daily, 4 days",,days to zero efficacy,2.1 days
O=S(=O)(O)c1ccc(-c2ccc(S(=O)(=O)O)cc2)cc1,Escherichia coli,"bacterial growth, inhibitor, broth microdilution",expressing OXA-48,"256 µg/mL, added: ampicillin",baseline: ampicillin alone,MIC fold reduction,16 fold
Nc1n[nH]c(=O)[nH]1,heterotrophic aerobic bacteria,O2 uptake,activated return sludge,,,IC20,> 32000 µM
CC(C)C(C(=O)N(Cc1ccc(C2CCCCC2)cc1)c1ccc(C(=O)O)cc1)N(C)S(=O)(=O)c1c(F)c(F)c(F)c(F)c1F (stereo not drawn),Pa03C-CAF co-culture spheroids,"cell growth, Alamar blue",,12 days,,IC50,23.5 ± 4.4 µM
CCCCCCCCCCCCNC(=O)N[C@H](C(=O)N[C@H]1/C=C/CCNC(=O)/C=C/[C@H](C)NC1=O)C(C)C,U-266 bortezomib-resistant,cell viability,,,baseline: EC50 resistant over parental U-266,resistance index,2.2 ± 0.4
COc1ccc2c(c1)c(CC(=O)NCCCCNC(=O)CCC(=O)OC1c3cc4c(cc3C(c3cc(OC)c(OC)c(OC)c3)C3C(=O)OCC13)OCO4)c(C)n2C(=O)c1ccc(Cl)cc1 (stereo not drawn),1483 HNSCC cells,,,"10 µM, 72 h, 5 h exposure then washout",baseline: vehicle,reduction in cell number,~80%
CC1(C)OC2C(COP(=O)(O)Nc3nccs3)OC(n3cnc4c(=O)[nH]c(NC(=O)c5ccccc5)nc43)C2O1 (stereo not drawn),HepG2,"cell growth, SRB",,,,IC50,59.7 ± 4.58 µM
CC1CCCCCCCCCCCCC(=O)C1 (stereo not drawn),Manis javanica OBP3 Y81A,,,concentration not given,baseline: wild type,binding affinity,decreased
C=CC(=O)Nc1cc(-n2c(=O)ccc3cnc4ccc(-c5cn[nH]c5)cc4c32)ccc1C,Ramos,"western blot, refers to: PARP and caspase-3 cleavage",,24 h,,concentration inducing apoptosis,300 nM
Cc1cc(=O)oc2cc(OCCCCn3cc(COc4ccc(N5C(N)=NC(N)=NC56CCCCC6)cc4)nn3)ccc12,Mycobacterium bovis,,"BCG Tac^r10.1, thyA H147Y missense",TA-C-resistant thyA mutant,,MIC50,3.2 µM
NC[C@@H](NC[C@@H]1CCCN1C[C@@H](CO)NC[C@@H](NCCc1ccc(-c2ccccc2)cc1)c1ccccc1)c1ccccc1,Klebsiella pneumoniae,bacterial growth,,"16 µM, fold shift of IC50, added: amikacin",,potentiation of amikacin,1.6 fold
COCCCn1nc(-c2ccc(CC(=O)Nc3cccc(F)c3)cc2)c2c(N)ncnc21,LC-2/ad (CCDC6-RET fusion),cell viability,,,,EC50,2.41 ± 0.16 µM
NC[C@@H](NC[C@@H]1CCCN1C[C@@H](CO)NC[C@@H](NCCC12CC3CC(CC(C3)C1)C2)c1ccccc1)c1ccccc1,Acinetobacter baumannii,bacterial growth,,compound alone,,IC50,20 µM and 19.7 µM
Cc1ccc(-c2csc(NP(=O)(O)OCC3OC(n4c[n+](Cc5ccccc5)c5c(=O)[nH]c(NC(=O)c6ccccc6)nc54)C4OC(C)(C)OC34)n2)cc1 (stereo not drawn),Vero,"cell growth, SRB",,,,IC50,> 100 µM
O=S(=O)(N[C@H]1CCC[C@@H](N2c3ccccc3CCc3ccccc32)[C@@H]1O)c1ccc(OC(F)(F)F)cc1,,,"mice, intracranial E98 glioblastoma xenograft","oral, 100 mg/kg twice daily",,median survival,26 days
NC(=O)CC[C@H](NC(=O)[C@H](CCC(N)=O)NC(=O)[C@H](CC(N)=O)NC(=O)[C@H](CC(N)=O)NC(=O)CNC(=O)[C@H](Cc1ccccc1)NC(=O)Cc1ccc2ccccc2c1)C(=O)N[C@@H](CC(N)=O)C(=O)N[C@@H](Cc1ccc(OP(=O)(O)O)cc1)C(=O)O,HeLa,"cell viability, MTT",,48 h,,IC50,> 500 µM
CO[C@H]1[C@H](O[C@H]([C@H]2O[C@@H](n3ccc(=O)[nH]c3=O)[C@H](O)[C@@H]2O)[C@H](NCCCNC(=O)[C@@H](NC(=O)[C@@H](NC(=O)N[C@H](C(=O)O)C(C)C)[C@@H]2CCNC(=N)N2)[C@@H](OC(=O)CCCCCCCCCCCCN(O)C(=N)N)C(C)C)C(N)=O)O[C@H](CN)[C@H]1O,Cryptococcus gattii,alamar blue,C17,,,MIC50,> 35 µg/mL
CC(CCN[C@H](CN[C@H](CO)CN1CCC[C@H]1CN[C@H](CN)c1ccccc1)c1ccccc1)c1ccccc1 (stereo partly drawn),Acinetobacter baumannii,bacterial growth,,"24 µM, fold shift of IC90, added: amikacin",,potentiation of amikacin,3.7 fold
Cc1c(C(=O)NN2CCCCC2)nn(-c2ccc(Cl)cc2Cl)c1-c1ccc(CCCCCBr)cc1,,,mice,"i.v., 10 mg/kg",,tail flick antinociception,inactive
C[C@H](CS)C(=O)N[C@H](Cc1c[nH]c2ccccc12)C(=O)O,Klebsiella pneumoniae,,IMP-1 producing,"10 µM, added: meropenem",,MIC of meropenem,8 µg/mL
CO[C@H]1[C@H](O[C@H]([C@H]2O[C@@H](n3ccc(=O)[nH]c3=O)[C@H](O)[C@@H]2O)[C@H](NCCCNC(=O)[C@@H](NC(=O)[C@@H](NC(=O)N[C@H](C(=O)O)C(C)C)[C@@H]2CCNC(=N)N2)[C@@H](OC(=O)CCCCCCCCCCCCNC(=N)N)C(C)C)C(N)=O)O[C@H](CN)[C@H]1O,Bacillus subtilis,alamar blue,ATCC 6051,,,MIC90,12.5 ± 0.158 µg/mL
CC(C)C[C@@H]1NC(=O)[C@H](CCC(=O)O)NC(=O)[C@@H]2CSSC[C@@H]3NC(=O)[C@H](C)NC(=O)[C@@H]4CCCN4C(=O)[C@H](CC(N)=O)NC(=O)[C@H](CSSC[C@H](NC(=O)[C@H](Cc4ccc(O)cc4)NC(=O)[C@H](CC(N)=O)NC(=O)[C@H](CO)NC(=O)[C@H](CO)NC(=O)CN4CCCN(CC(=O)O)CCN(CC(=O)O)CCCN(CC(=O)O)CC4)C(=O)N2)NC(=O)[C@H](CSSC[C@@H](C(=O)N[C@@H](Cc2ccccc2)C(=O)O)NC(=O)CNC(=O)[C@H]([C@@H](C)O)NC3=O)NC1=O [copper-64 labelled],T84,,,"concentration not given, 100 min, pH 5.5, 37 °C, 64Cu-labelled compound",baseline: cell-associated,internalized radioactivity,49.1 ± 2.7%
O=C(O)c1ccc(-c2cccc(C(=O)O)c2)cc1,Escherichia coli,"bacterial growth, broth microdilution",expressing OXA-48,"16 µg/mL, added: ampicillin",MIC of ampicillin,MIC of ampicillin,512 µg/mL
NC[C@@H](NC[C@@H]1CCCN1C[C@@H](CO)NC[C@@H](NCCc1ccc(Cl)c(Cl)c1)c1ccccc1)c1ccccc1,Escherichia coli,bacterial growth,,compound alone,,IC90,15.2 µM
COc1ccc(CN[C@@H]2CO[C@H](C(c3ccccc3)c3ccccc3)C[C@H]2O)cc1,NMDA receptor PCP site,radioligand binding,,"10 µM, added: MK-801",,inhibition,15.4%

# For quick reference, copied from above:
SMILES,target or system,test,system,conditions,scale,measurement,value
COc1ccc2c(c1)c(CC(=O)NCCCCNC(=O)CCC(=O)OC1c3cc4c(cc3C(c3cc(OC)c(OC)c(OC)c3)C3C(=O)OCC13)OCO4)c(C)n2C(=O)c1ccc(Cl)cc1 (stereo not drawn),1483 HNSCC cells,,,"10 µM, 72 h, 5 h exposure then washout",baseline: vehicle,reduction in cell number,~80%
CCCCCCCCCCCCNC(=O)N[C@H](C(=O)N[C@H]1/C=C/CCNC(=O)/C=C/[C@H](C)NC1=O)C(C)C,U-266 bortezomib-resistant,cell viability,,,baseline: EC50 resistant over parental U-266,resistance index,2.2 ± 0.4
O=S(=O)(O)c1ccc(-c2ccc(S(=O)(=O)O)cc2)cc1,Escherichia coli,"bacterial growth, inhibitor, broth microdilution",expressing OXA-48,"256 µg/mL, added: ampicillin",baseline: ampicillin alone,MIC fold reduction,16 fold
C[C@H](CS)C(=O)N[C@H](Cc1c[nH]c2ccccc12)C(=O)O,Klebsiella pneumoniae,,IMP-1 producing,"10 µM, added: meropenem",,MIC of meropenem,8 µg/mL
